Results from different studies.
Numbers after ± are the reported error.
B1: enzyme E416A (Streptomyces platensis, UniProt A0A0A0V031); chain MQHTTIGDVLREHRRSHPGRTALVDGPVRLTWPELDDRVNRLAGSLAASGIGRGDRIMWLGQNSFRVYELIAAAGKLGAMVCVGYWRWAPPEMEFALRDFDPHLVVWQHQEIHETVARTREALGSDDTARWLRHDSAPQDPDGYEAFLAAGGLADPDLDIDPDSPVLVLYTAAMSGRQCGSLLSHTNLIAMATAAAWLGDIDHTTAFLNSGPMFHIGNHQFWGMPTLLMAGKNVIVRRVVAEEVRDLLVAEECTHAFLMPPTVAEIVRLNRDTGHDLSRLRATVAPHLWEGMATTDTSRFTRSGAAAGRGYGQTELSGFAVTAAYGGPAAGNAGRPGPGLTVRVLDTAGRECAVGEAGEICARGTVVHRGYWNRDEVNAHRFRSGWWHTTDLGRREPDGSLTFLGTTTRMLKSAAANIFPAEVENCIEQHPAVREAAVIGVPNTRWAQDVKAVVVLEPDAGVSEQEIIDHCRPRIASYKKPKSVAFAAALPRTVSGARDYDALDKEYGGGGYPGAATLGPGR
Sequence of UniProt P05804 (whole entry, looked up): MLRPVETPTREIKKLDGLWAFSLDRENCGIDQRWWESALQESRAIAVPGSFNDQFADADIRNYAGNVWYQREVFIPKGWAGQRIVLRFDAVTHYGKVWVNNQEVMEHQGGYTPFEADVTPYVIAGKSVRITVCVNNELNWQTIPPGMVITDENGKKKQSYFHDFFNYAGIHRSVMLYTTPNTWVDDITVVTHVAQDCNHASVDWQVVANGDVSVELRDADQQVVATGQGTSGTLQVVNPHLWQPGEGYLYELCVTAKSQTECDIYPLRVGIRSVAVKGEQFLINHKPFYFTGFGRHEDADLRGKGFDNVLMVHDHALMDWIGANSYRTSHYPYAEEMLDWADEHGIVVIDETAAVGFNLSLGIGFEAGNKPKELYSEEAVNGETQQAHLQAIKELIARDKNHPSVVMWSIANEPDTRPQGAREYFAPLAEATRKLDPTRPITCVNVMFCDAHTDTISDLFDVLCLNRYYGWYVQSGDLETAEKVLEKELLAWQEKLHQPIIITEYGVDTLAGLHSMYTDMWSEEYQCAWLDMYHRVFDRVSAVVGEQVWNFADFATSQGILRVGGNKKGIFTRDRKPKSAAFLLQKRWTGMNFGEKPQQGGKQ

Molecule | target or system | assay | test system | setting | how to read | quantity | result
CC(C)C[C@H](NC(=O)[C@@H]1CCCN1C(=O)[C@H](CCCCN)NC(=O)[C@@H](N)CO)C(=O)N1CCC[C@H]1C(=O)N[C@@H](CCC(=O)O)C(=O)N[C@H](C(=O)N[C@H](C(=O)N[C@@H](CC(=O)O)C(=O)N[C@@H](CCC(=O)O)C(=O)N[C@@H](Cc1ccc(O)cc1)C(=O)N[C@@H](Cc1cn(CCOCCOCCOCCNC(=O)CCc2ccc(O)c(CN(CCN(CC(=O)O)Cc3cc(CCC(=O)NCCCC[C@H](NC(=O)N[C@@H](CCC(=O)O)C(=O)O)C(=O)O)ccc3O)CC(=O)O)c2)nn1)C(=O)O)[C@@H](C)O)C(C)C [gallium-68 labelled] | – | – | NMRI nu/nu mouse, LNCaP xenograft, brown adipose tissue | 10 MBq, high molar activity | – | SUV | 0.12 g/g
B1 (enzyme E416A) | C[C@@]12CCC[C@@](C)(C(=O)OP(=O)(O)OC[C@H]3O[C@@H](n4cnc5c(N)ncnc54)[C@H](O)[C@@H]3O)[C@H]1C[C@@H](O)[C@]13C[C@H]4C[C@H](O[C@@]4(C)C1)[C@@H]23 | steady-state kinetics | – | pH 7.8, 25 °C | – | Vmax | 6.42 µmol/min
CCCC[C@H](NC(=O)CNC(=O)CNC(=O)c1ccc(NN)nc1)C(=O)N[C@H]1CC(=O)NCCCC[C@@H](C(N)=O)NC(=O)[C@H](Cc2c[nH]c3ccccc23)NC(=O)[C@H](CCCNC(=N)N)NC(=O)[C@@H](Cc2ccccc2)NC(=O)[C@H](Cc2c[nH]cn2)NC1=O [technetium-99m labelled] | – | – | C57 mouse, B16/F1 melanoma | 2 h, added: L-lysine | reference: tumour over kidney | uptake ratio | 3.23
N=C(N)NCCC[C@@H]1NC(=O)[C@H](CCCCNC(=O)CCOCCOCCOCCOCCNC(=O)CN2CCN(CC(=O)O)CCN(CC(=O)O)CCN(CC(=O)O)CC2)NC(=O)[C@@H](Cc2ccccc2)NC(=O)[C@H](CC(=O)O)NC(=O)CNC1=O [indium-111 labelled] | – | – | athymic nude mice, female, U-87 MG glioma xenograft, tumour and kidney | intravenous, 4 h | reference: tumour over kidney | tumour to tissue ratio | 0.93 ± 0.2
COc1ccc(C[C@H]2NC(=O)/C=C/C[C@@H]([C@H](C)[C@@H](OC(=O)CNC(=O)OCc3ccc(O[C@@H]4O[C@H](C(=O)O)[C@@H](O)[C@H](O)[C@H]4O)c(NC(=O)CCCc4cn(CCC(=O)NCCCC[C@@H]5NC(=O)[C@@H](Cc6ccccc6)NC(=O)[C@H](CC(=O)O)NC(=O)CNC(=O)[C@H](CCCNC(=N)N)NC5=O)nn4)c3)[C@@H](Cl)c3ccccc3)OC(=O)[C@H](CC(C)C)OC(=O)C(C)(C)CNC2=O)cc1Cl | Beta-glucuronidase (uidA, Escherichia coli, UniProt P05804) | substrate | – | pH 7.0, 37 °C, added: enzyme 200 U/mL | – | half-life | 15 min
N=C(N)NCCC[C@@H]1NC(=O)[C@H](CCCCNC(=O)CC[C@H](NC(=O)CCOCCOCCOCCOCCNC(=O)CC[C@H](NC(=O)CN2CCN(CC(=O)O)CCN(CC(=O)O)CCN(CC(=O)O)CC2)C(=O)NCCOCCOCCOCCOCCC(=O)N[C@@H](CCC(=O)NCCCC[C@@H]2NC(=O)[C@@H](Cc3ccccc3)NC(=O)[C@H](CC(=O)O)NC(=O)CNC(=O)[C@H](CCCNC(=N)N)NC2=O)C(=O)NCCCC[C@@H]2NC(=O)[C@@H](Cc3ccccc3)NC(=O)[C@H](CC(=O)O)NC(=O)CNC(=O)[C@H](CCCNC(=N)N)NC2=O)C(=O)NCCCC[C@@H]2NC(=O)[C@@H](Cc3ccccc3)NC(=O)[C@H](CC(=O)O)NC(=O)CNC(=O)[C@H](CCCNC(=N)N)NC2=O)NC(=O)[C@@H](Cc2ccccc2)NC(=O)[C@H](CC(=O)O)NC(=O)CNC1=O [indium-111 labelled] | – | – | female athymic nude mice, heart | intravenous, 3 µCi, 4 h, U-87 MG glioma xenograft | – | tissue uptake | 0.68 ± 0.31 %ID/g
NCCOCCOCCOCCOCCOCCOCCC(=O)NCCC(=O)NCCCC[C@H](NC(=O)CCNC(=O)CCOCCOCCOCCOCCOCCOCCN)C(=O)NCCOCCOCCOCCOCCOCCOCCC(=O)NCCC(=O)NCCCC[C@H](NC(=O)CCNC(=O)CCOCCOCCOCCOCCOCCOCCNC(=O)[C@H](CCCCNC(=O)CCNC(=O)CCOCCOCCOCCOCCOCCOCCN)NC(=O)CCNC(=O)CCOCCOCCOCCOCCOCCOCCN)C(=O)NCCOCCOCCOCCOCCOCCOCCC(=O)NCCC(=O)NCCCC[C@H](NC(=O)CCNC(=O)CCOCCOCCOCCOCCOCCOCCNC(=O)[C@H](CCCCNC(=O)CCNC(=O)CCOCCOCCOCCOCCOCCOCCNC(=O)[C@H](CCCCNC(=O)CCNC(=O)CCOCCOCCOCCOCCOCCOCCN)NC(=O)CCNC(=O)CCOCCOCCOCCOCCOCCOCCN)NC(=O)CCNC(=O)CCOCCOCCOCCOCCOCCOCCNC(=O)[C@H](CCCCNC(=O)CCNC(=O)CCOCCOCCOCCOCCOCCOCCN)NC(=O)CCNC(=O)CCOCCOCCOCCOCCOCCOCCN)C(=O)NCCOCCOCCOCCOCCOCCOCCC(=O)N[C@@H](CCCCNC(=O)c1ccc2c(c1)C(=O)OC21c2ccc(O)cc2Oc2cc(O)ccc21)C(=O)NCCC(=O)O | J774.E macrophages | MTT | – | 40 nM, 1 h, 37 °C, 10% FBS, with or without mannan | reference: untreated | viability | not toxic
N=C(N)NCCC[C@@H]1NC(=O)[C@H](CCCCNC(=O)CCOCCOCCOCCOCCNC(=O)CC[C@H](NC(=O)CCOCCOCCOCCOCCNC(=O)CC[C@H](NC(=O)CN2CCN(CC(=O)O)CCN(CC(=O)O)CCN(CC(=O)O)CC2)C(=O)NCCOCCOCCOCCOCCC(=O)N[C@@H](CCC(=O)NCCOCCOCCOCCOCCC(=O)NCCCC[C@@H]2NC(=O)[C@@H](Cc3ccccc3)NC(=O)[C@H](CC(=O)O)NC(=O)CNC(=O)[C@H](CCCNC(=N)N)NC2=O)C(=O)NCCOCCOCCOCCOCCC(=O)NCCCC[C@@H]2NC(=O)[C@@H](Cc3ccccc3)NC(=O)[C@H](CC(=O)O)NC(=O)CNC(=O)[C@H](CCCNC(=N)N)NC2=O)C(=O)NCCOCCOCCOCCOCCC(=O)NCCCC[C@@H]2NC(=O)[C@@H](Cc3ccccc3)NC(=O)[C@H](CC(=O)O)NC(=O)CNC(=O)[C@H](CCCNC(=N)N)NC2=O)NC(=O)[C@@H](Cc2ccccc2)NC(=O)[C@H](CC(=O)O)NC(=O)CNC1=O [indium-111 labelled] | – | – | female athymic nude mice, muscle | intravenous, 3 µCi, 72 h, U-87 MG glioma xenograft | – | tissue uptake | 0.23 ± 0.05 %ID/g
C=Cc1c(C)c2cc3nc(c4c5[nH]c(cc6nc(cc1[nH]2)C(C)=C6CC)c(C)c5C(=O)C4)[C@@H](CCC(=O)NCC(=O)N1CCC[C@H]1C(=O)N[C@@H](CC(C)C)C(=O)NCC(=O)N[C@@H](Cc1ccccc1)C(=O)N[C@@H](CCCNC(=N)N)C(=O)N[C@H](C(=O)NCC(=O)N[C@@H](CCCCN)C(N)=O)C(C)C)[C@@H]3C | OA patient synovial fibroblasts | flow cytometry, item: cellular uptake | – | 1 µM, 1 h | – | fluorescent cells | 30 ± 10%
